Measured values gathered from unrelated publications.
A part holds a random share of what one study measured. Substitutions count along the parent as printed.
UniProt Q8WVN8, sequence (whole entry, looked up): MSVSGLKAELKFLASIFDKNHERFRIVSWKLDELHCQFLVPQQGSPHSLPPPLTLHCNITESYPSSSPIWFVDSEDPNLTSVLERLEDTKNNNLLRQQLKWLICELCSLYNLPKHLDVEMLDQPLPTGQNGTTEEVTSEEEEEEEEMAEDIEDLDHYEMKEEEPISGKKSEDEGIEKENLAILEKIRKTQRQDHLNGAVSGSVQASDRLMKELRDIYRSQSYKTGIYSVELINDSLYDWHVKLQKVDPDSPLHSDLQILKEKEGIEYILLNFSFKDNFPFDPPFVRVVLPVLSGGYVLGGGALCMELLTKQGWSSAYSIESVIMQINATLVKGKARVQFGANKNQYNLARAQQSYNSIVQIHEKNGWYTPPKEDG
UniProt P51965, sequence (whole entry, looked up): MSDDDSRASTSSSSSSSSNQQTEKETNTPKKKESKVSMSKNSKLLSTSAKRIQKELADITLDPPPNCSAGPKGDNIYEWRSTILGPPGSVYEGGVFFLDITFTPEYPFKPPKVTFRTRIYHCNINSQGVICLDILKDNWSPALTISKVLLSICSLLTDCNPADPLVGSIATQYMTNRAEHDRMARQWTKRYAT
UniProt Q15819, sequence (whole entry, looked up): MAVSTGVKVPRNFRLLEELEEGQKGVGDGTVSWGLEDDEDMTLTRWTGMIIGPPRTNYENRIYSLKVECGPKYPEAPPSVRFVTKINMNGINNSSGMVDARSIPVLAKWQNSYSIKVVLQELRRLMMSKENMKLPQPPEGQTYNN
UniProt Q96LR5, sequence (whole entry, looked up): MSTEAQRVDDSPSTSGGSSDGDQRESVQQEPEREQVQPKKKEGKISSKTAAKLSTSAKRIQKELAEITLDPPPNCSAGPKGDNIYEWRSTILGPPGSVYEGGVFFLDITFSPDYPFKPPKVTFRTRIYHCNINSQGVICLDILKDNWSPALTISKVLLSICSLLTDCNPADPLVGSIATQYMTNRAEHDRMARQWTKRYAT
UniProt O14933, sequence (whole entry, looked up): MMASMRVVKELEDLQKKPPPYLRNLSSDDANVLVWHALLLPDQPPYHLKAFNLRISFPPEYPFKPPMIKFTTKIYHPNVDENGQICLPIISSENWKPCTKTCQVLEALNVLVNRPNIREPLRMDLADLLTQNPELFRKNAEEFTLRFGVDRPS
UniProt P60604, sequence (whole entry, looked up): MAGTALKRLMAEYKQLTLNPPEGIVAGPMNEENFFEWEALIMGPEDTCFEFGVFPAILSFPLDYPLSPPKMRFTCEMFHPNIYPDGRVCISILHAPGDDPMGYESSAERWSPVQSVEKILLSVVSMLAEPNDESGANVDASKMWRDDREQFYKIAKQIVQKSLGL
UniProt P61088, sequence (whole entry, looked up): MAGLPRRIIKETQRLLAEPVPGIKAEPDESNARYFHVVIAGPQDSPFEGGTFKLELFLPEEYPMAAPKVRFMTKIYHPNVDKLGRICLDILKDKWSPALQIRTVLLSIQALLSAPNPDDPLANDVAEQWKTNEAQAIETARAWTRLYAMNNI
UniProt P49427, sequence (whole entry, looked up): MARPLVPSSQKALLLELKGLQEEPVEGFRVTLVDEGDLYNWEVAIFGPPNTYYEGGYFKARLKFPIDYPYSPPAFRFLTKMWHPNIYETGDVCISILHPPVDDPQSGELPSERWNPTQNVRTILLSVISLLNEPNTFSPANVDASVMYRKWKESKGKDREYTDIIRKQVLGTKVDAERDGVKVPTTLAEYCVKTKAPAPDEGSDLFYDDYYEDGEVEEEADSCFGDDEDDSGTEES
UniProt Q5VVX9, sequence (whole entry, looked up): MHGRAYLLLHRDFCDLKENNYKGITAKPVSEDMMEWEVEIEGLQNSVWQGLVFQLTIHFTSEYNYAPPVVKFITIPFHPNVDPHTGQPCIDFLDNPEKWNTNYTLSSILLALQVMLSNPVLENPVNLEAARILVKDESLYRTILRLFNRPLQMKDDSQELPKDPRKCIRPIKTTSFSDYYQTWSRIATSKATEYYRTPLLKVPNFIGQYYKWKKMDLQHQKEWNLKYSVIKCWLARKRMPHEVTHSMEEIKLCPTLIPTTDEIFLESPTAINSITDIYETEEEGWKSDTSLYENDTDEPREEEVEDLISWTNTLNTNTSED
UniProt P62256, sequence (whole entry, looked up): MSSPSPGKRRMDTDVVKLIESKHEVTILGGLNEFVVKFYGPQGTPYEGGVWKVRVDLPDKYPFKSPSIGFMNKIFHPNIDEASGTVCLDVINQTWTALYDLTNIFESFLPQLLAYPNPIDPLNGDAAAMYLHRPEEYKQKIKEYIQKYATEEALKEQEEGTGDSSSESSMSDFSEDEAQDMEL
UniProt Q13404, sequence (whole entry, looked up): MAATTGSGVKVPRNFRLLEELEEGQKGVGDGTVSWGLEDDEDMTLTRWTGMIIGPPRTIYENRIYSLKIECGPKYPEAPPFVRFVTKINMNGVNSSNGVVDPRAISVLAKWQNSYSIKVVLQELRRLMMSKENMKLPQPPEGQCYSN

Block 1 — method: RNA Bind-n-Seq; form: RNA; medium: in vitro; concentration: 100 nM; reference: input RNA pool; reading: higher = stronger binding
Target: RING finger protein unkempt homolog, zinc fingers 1-6, SBP tag (UNK, Homo sapiens, UniProt Q9C0B0, residues 30-357)
UniProt Q9C0B0, sequence (30-357, looked up): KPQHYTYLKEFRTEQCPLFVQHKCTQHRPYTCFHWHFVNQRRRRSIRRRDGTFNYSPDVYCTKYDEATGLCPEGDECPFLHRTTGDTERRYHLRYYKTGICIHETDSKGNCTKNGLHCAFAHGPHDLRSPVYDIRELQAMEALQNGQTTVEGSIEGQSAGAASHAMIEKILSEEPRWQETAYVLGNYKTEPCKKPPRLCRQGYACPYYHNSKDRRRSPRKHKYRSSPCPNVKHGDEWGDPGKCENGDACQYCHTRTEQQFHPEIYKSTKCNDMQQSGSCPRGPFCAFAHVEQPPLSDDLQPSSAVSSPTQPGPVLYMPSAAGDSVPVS
Notes: RNA with constant flanks, vertebrate orthologous sites, ends assumed
Strand	bound/input enrichment [ratio]
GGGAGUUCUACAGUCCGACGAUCUUGUAUGGGCCUCGCAGGGUUGAGAUAAUAGAAGAUGAAACCGAACAGUAGUCUUCAUUUUAGUAUUAUGACUAGGUGUGGAAUAAAUGUUCCCUGUUGAUCUUACCUAUAAUCUGGGGCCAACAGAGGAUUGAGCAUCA	1.19
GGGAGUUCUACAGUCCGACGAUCUUGGAAAUUCCCCAUUGUCACUGAGAACCACCAAAUCUGACUUUUACAUUUGGUGGAAUUUAGGUUCCUGCCCUGUUGGUUUUUUUUUUUUUUUUAAACAGUUUUCACAAGUUCUUAAAGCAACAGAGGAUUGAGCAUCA	0.96
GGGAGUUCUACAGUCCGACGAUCAUGGGGGUGGGGUGGGUAAGGGACGUGGACGAUAGGAUGCUACUGGGAUUUUUAAGUGCUCCGGGGUUUGUUUUUCUUCUUCCCACUUUCUGUUUCUGUUCUUCCCAUUCAUUGGAUGCACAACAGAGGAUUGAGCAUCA	0.675
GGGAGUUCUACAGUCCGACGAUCCCUACGUAAAAUAUUGGAUGCAGUGUAUAAAAAGGCAGUGACUUCAGCUUUAUAAAUAUAUGGCUAGUGUUAGAGUUAUCUACAUUUAUUUAAUCUUUUAGAUUGGAUUGUUUGCUAUUGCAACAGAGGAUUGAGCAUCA	0.549
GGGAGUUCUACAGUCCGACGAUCCAUAGGCUGUUUAAGCUGUGGGAAAAUGAGCUUUUCUUUUUAUAUAUAUAUAUAUUUAAAUAGGAUACUUUUAUAUGAUGGGUGCUUUGAGUGUGAAUGCAGCAGGCUCUCUAUUUCAGACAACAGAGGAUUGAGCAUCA	1.12
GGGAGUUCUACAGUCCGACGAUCUCCCAGCACUUUGAUAAAAAGUGUGGACUGGCUGCUUGUAUUUUCCUUAUUCUUUUUAAUUAGUUUUAUUAUGUAUGCCACCAUUCGAACGGAGAGUAUUCGGUGGCUAAUUCCAGGACACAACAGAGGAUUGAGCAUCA	8.47
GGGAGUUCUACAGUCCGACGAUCUCAGUCCCCUGGGCUGGGACAGAUUUUUUUUAACGUCUUGAAACUUAAACUUUGUGCUUGUAGGAGACUGUAACCUUUUUGUCUUUUUUUUUUUUUAAACAAACAACCUCCACCUCCAGUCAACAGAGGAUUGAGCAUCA	0.715
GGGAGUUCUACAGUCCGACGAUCCAUUAACACACAAAAUGUCUCCAGGGGGGUAUUAGAUUUGAUUUCUUACAUAUAAAACAAACCAACCAACCAUUUUUAAAGUAGAAGAGGGUUUUAGAUAGUAAAUGAAAUAUUCUUUUUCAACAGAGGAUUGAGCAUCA	1.62

Block 2 — method: protein-binding microarray; form: double-stranded DNA, one strand shown; medium: in vitro; concentration: 2200 nM top; notes: 60-bp whole probe; added: salmon DNA 0.4 mg/ml; reference: random background probes; reading: higher = stronger binding; shared flanks, not repeated: GCCTAGCAC … GTCTTGATTCGCTTGACGCTGCTG
Target: Interferon regulatory factor 7, full length, phosphomimetic (IRF7, Homo sapiens, UniProt Q92985, residues 1-503, S471D/S472D/S475D/S476D/S477D/S483D/S484D/S487D)
Residues (chain): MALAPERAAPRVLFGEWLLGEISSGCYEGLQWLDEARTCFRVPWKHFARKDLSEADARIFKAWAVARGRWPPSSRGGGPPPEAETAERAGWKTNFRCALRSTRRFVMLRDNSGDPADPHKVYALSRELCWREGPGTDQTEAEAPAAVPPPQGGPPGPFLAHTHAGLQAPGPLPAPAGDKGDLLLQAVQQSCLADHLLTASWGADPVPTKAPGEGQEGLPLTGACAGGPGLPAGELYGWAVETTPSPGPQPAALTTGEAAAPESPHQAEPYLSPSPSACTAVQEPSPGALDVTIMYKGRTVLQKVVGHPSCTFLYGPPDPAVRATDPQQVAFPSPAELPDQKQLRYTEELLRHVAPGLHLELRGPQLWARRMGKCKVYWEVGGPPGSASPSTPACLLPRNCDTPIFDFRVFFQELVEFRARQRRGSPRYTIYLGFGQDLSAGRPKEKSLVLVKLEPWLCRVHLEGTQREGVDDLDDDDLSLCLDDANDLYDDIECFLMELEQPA
Strand	fitted relative affinity
GACCTTTTTAAGATCTGTGCGTGCTAG	0.549 z-score
GAATGTTTTTCATTGTTTTTGTGCTAG	1.22 z-score
GACGAGCTGAGTTTCGAGACGTGCTAG	2.09 z-score
GACGGCCTGGGTCTCGGGACGTGCTAG	-1.23 z-score
TTAGGTTTCGGGCTTCGGTTAGTGCTA	4.02 z-score
GACGGTTCCCGTTTCGGGACGTGCTAG	2.91 z-score
TTAGGTATAGGTCTCGGTTAGTGCTAG	0.27 z-score
TTAGGACGGGACTTTCGGTTAGTGCTA	5.13 z-score
CTTCCCCTCTCTTTCCAACTGTGCTAG	2.56 z-score
TCACTTTTGCTAATTTTACTGTGCTAG	1.83 z-score
CACGGTTTCCTTCTCCTGACGTGCTAG	3.15 z-score
GACGGTCTCCGTTTCGGGACGTGCTAG	1.77 z-score
TTAGGTTTCGGGTCTCGGTTAGTGCTA	8.29 z-score
GACGGACTACTTTTCCTGACGTGCTAG	0.832 z-score
TTTCTTACATGCATCATAACGTGCTAG	2.1 z-score
TCAATTTTAACCCTTATACTGTGCTAG	0.664 z-score
GACGGTATCGACTTTGGGGACGTGCTA	-0.0554 z-score
TCACTTTTAATTTTTAAACTGTGCTAG	0.798 z-score

Block 3 — Molecule: RNF141 RING domain (UniProt Q8WVD5); method: yeast two-hybrid; medium: yeast; notes: mostly zero background; reference: not given; reading: higher = stronger interaction
UniProt Q8WVD5, sequence (whole entry, looked up): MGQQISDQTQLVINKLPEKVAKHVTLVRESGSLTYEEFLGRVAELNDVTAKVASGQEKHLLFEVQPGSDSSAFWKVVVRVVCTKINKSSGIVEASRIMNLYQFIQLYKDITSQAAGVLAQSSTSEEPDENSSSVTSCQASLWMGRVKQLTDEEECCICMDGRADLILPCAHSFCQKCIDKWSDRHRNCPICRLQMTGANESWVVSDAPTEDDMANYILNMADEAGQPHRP
target	lacZ reporter activity
UBE2U UBC core domain (UniProt Q5VVX9)	0
CDC34 UBC core domain (UniProt P49427)	0
UBE2E1 UBC core domain (UniProt P51965)	0
UBE2G2 UBC core domain (UniProt P60604)	0
UBE2N UBC core domain (UniProt P61088)	0
UBE2H UBC core domain (UniProt P62256)	0
UBE2Q2 UBC core domain (UniProt Q8WVN8)	0
UBE2V1 UBC core domain (UniProt Q13404)	0
UBE2L6 UBC core domain (UniProt O14933)	0
UBE2E2 UBC core domain (UniProt Q96LR5)	0
UBE2V2 UBC core domain (UniProt Q15819)	0

Block 4 — target: CCND1, cyclin fold, Cln2 fusion (human); method: yeast growth competition, sequencing; medium: yeast; notes: weak parent motif; reference: not given; reading: higher = stronger binding
Starting sequence: CDAN1 docking peptide (human); RGARSQLFPPTEA
Substitution	normalised enrichment score
RGARSQAFPPTEA [L7A]	-0.0934
RGARSQLFPATEA [P10A]	0.0952
RGARAQLFPPTEA [S5A]	0.149
RGARSALFPPTEA [Q6A]	-0.197
RGARSQLAPPTEA [F8A]	0.00894
RAARSQLFPPTEA [G2A]	-0.115

Block 5 — method: protein binding microarray; form: double-stranded DNA, one strand shown; medium: in vitro; concentration: not given; reference: not given; reading: higher = stronger binding
Target: Histone acetyltransferase KAT6A, both winged helices, GST fusion (KAT6A, Homo sapiens, UniProt Q92794, residues 1-181)
Notes: 8-mer, flanks averaged, mean of 2 arrays, mostly near background
Residues (chain): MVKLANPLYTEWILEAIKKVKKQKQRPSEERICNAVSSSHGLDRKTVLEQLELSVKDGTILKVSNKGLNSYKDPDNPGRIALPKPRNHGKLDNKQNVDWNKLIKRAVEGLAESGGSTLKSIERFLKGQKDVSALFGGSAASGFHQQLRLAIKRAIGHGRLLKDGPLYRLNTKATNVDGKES
Strand	E-score
ACTCGGCG	0.249
CGTCTTGA	0.0116
ACACCTGC	0.016
CGAATTAA	-0.0438
AACAAAGG	-0.2
CCTTTGGA	-0.188
CTAATGTA	-0.0342
ATCCACGG	0.212
GTTTCGTA	0.0407
ATTGAAAC	-0.0778
CTTTTCGC	0.146
CCTGCAGG	-0.143
AGCTACCA	-0.25
AACCTATG	-0.0876
TAATTCCA	-0.161
ACCCTCCC	0.0416
GGTAAAGA	0.0482
GGTTCGTA	-0.0373
ATGCCGCC	0.295
ATCTTCAA	-0.0783

Block 6 — target: JUND, bZIP domain (human); method: DHFR protein complementation; medium: yeast; reference: wild-type JUN-FOS pair; reading: higher = stronger binding
Notes: single substitutions, most at no-binding floor
Starting sequence: JUN, bZIP domain (human); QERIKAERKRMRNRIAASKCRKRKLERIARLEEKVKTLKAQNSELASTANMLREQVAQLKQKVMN; partner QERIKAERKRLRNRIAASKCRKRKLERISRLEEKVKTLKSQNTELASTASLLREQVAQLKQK
Substitution	binding fitness
S43Y	-0.843 natural log
A46R	-0.585 natural log
T37S	-0.638 natural log
R30D	-0.657 natural log
A29K	-0.694 natural log
K39G	-1.12 natural log
E32K	-0.854 natural log
S43C	-0.726 natural log
S43H	-0.706 natural log
S47N	-0.529 natural log
V35M	-1.15 natural log
Q41M	-0.776 natural log
E32I	-1.2 natural log
E44Y	-0.992 natural log
E44S	-0.972 natural log
Q58R	-0.881 natural log
A29F	-0.999 natural log
K36T	-1.06 natural log
K34S	-0.592 natural log
A46C	-1 natural log
E32S	-1.19 natural log
A49G	-1.03 natural log

Excerpt of the above (block 1):
Strand	bound/input enrichment [ratio]
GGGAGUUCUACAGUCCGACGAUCUUGUAUGGGCCUCGCAGGGUUGAGAUAAUAGAAGAUGAAACCGAACAGUAGUCUUCAUUUUAGUAUUAUGACUAGGUGUGGAAUAAAUGUUCCCUGUUGAUCUUACCUAUAAUCUGGGGCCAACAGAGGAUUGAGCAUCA	1.19
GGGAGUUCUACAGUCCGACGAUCUUGGAAAUUCCCCAUUGUCACUGAGAACCACCAAAUCUGACUUUUACAUUUGGUGGAAUUUAGGUUCCUGCCCUGUUGGUUUUUUUUUUUUUUUUAAACAGUUUUCACAAGUUCUUAAAGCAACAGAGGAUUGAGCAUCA	0.96
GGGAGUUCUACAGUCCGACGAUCAUGGGGGUGGGGUGGGUAAGGGACGUGGACGAUAGGAUGCUACUGGGAUUUUUAAGUGCUCCGGGGUUUGUUUUUCUUCUUCCCACUUUCUGUUUCUGUUCUUCCCAUUCAUUGGAUGCACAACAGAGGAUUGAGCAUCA	0.675
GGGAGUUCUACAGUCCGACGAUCCCUACGUAAAAUAUUGGAUGCAGUGUAUAAAAAGGCAGUGACUUCAGCUUUAUAAAUAUAUGGCUAGUGUUAGAGUUAUCUACAUUUAUUUAAUCUUUUAGAUUGGAUUGUUUGCUAUUGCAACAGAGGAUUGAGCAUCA	0.549
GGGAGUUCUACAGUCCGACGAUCCAUAGGCUGUUUAAGCUGUGGGAAAAUGAGCUUUUCUUUUUAUAUAUAUAUAUAUUUAAAUAGGAUACUUUUAUAUGAUGGGUGCUUUGAGUGUGAAUGCAGCAGGCUCUCUAUUUCAGACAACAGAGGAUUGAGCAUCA	1.12
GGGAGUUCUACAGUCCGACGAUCUCCCAGCACUUUGAUAAAAAGUGUGGACUGGCUGCUUGUAUUUUCCUUAUUCUUUUUAAUUAGUUUUAUUAUGUAUGCCACCAUUCGAACGGAGAGUAUUCGGUGGCUAAUUCCAGGACACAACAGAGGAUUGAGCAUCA	8.47
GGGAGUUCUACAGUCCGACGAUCUCAGUCCCCUGGGCUGGGACAGAUUUUUUUUAACGUCUUGAAACUUAAACUUUGUGCUUGUAGGAGACUGUAACCUUUUUGUCUUUUUUUUUUUUUAAACAAACAACCUCCACCUCCAGUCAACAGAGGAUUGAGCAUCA	0.715
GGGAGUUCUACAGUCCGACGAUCCAUUAACACACAAAAUGUCUCCAGGGGGGUAUUAGAUUUGAUUUCUUACAUAUAAAACAAACCAACCAACCAUUUUUAAAGUAGAAGAGGGUUUUAGAUAGUAAAUGAAAUAUUCUUUUUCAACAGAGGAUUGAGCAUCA	1.62
